Results gathered from unrelated publications.
Lines come from different studies, so protocols differ. ± gives the spread as reported.
Sialyltransferase ST3Gal-I: Sialyltransferase ST3Gal-I (Rattus norvegicus, UniProt Q6H8N0)
MAL12: Alpha-glucosidase MAL12 (MAL12, Saccharomyces cerevisiae S288c, UniProt P53341)
Chain of UniProt P53341 (whole entry, looked up): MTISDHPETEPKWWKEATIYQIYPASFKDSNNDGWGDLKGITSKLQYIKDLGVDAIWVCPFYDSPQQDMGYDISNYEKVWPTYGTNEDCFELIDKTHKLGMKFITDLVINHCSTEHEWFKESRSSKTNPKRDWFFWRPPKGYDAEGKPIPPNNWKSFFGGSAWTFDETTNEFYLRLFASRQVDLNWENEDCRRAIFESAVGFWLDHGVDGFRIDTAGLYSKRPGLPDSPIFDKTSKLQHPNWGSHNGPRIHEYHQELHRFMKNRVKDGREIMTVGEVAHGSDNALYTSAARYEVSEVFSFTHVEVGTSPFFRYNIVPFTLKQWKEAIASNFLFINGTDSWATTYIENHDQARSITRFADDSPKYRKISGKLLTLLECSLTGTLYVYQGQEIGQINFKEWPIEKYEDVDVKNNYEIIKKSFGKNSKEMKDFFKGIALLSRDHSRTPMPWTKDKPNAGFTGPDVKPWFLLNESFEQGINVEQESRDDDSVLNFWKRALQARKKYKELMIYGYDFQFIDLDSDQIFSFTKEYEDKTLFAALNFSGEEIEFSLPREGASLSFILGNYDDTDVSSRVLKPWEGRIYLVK
AKR1C3: Aldo-keto reductase family 1 member C3 (AKR1C3, Homo sapiens, UniProt P42330)
Chain of UniProt P42330 (whole entry, looked up): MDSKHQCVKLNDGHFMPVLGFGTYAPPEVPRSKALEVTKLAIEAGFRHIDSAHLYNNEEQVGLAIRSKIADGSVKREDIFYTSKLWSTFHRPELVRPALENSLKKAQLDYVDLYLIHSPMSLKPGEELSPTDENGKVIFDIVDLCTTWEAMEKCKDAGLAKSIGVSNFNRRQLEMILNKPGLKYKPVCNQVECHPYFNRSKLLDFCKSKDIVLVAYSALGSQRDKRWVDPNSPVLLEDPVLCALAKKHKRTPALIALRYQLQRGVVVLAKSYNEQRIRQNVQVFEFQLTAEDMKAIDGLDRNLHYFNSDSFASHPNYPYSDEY
DNMT3A catalytic domain: DNA (cytosine-5)-methyltransferase 3A, catalytic domain (DNMT3A, Homo sapiens, UniProt Q9Y6K1)
Ectonucleoside triphosphate diphosphohydrolase 2: Ectonucleoside triphosphate diphosphohydrolase 2 (Homo sapiens, UniProt Q9Y5L3)
Chain of UniProt Q9Y5L3 (whole entry, looked up): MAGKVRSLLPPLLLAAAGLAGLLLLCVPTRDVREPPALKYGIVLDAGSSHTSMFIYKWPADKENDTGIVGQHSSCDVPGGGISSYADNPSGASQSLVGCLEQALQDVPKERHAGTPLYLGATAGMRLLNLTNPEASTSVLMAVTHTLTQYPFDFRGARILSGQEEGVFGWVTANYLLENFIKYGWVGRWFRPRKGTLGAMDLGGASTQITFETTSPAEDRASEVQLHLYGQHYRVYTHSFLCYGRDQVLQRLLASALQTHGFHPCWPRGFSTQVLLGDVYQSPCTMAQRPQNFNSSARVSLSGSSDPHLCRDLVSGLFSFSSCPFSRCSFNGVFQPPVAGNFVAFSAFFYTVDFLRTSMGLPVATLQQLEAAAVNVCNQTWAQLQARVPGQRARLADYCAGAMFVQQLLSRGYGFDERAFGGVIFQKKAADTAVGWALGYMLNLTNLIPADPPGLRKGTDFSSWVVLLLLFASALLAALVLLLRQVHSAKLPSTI
CDK2 with cyclin A2: Cyclin-dependent kinase 2, with cyclin A2 (CDK2, Homo sapiens, UniProt P24941)
SIRT6: NAD-dependent protein deacylase sirtuin-6 (SIRT6, Homo sapiens, UniProt Q8N6T7)
Chain of UniProt Q8N6T7 (whole entry, looked up): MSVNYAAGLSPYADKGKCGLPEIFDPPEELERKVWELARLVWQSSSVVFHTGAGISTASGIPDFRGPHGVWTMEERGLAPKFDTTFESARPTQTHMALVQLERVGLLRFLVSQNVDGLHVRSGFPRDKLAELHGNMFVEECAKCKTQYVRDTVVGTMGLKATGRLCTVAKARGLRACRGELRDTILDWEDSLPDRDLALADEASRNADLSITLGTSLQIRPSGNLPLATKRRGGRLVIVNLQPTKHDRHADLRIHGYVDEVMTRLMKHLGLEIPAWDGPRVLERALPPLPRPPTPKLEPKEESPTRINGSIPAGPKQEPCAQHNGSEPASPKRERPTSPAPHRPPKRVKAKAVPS
CTSL: Procathepsin L (CTSL, Homo sapiens, UniProt P07711)
Chain of UniProt P07711 (whole entry, looked up): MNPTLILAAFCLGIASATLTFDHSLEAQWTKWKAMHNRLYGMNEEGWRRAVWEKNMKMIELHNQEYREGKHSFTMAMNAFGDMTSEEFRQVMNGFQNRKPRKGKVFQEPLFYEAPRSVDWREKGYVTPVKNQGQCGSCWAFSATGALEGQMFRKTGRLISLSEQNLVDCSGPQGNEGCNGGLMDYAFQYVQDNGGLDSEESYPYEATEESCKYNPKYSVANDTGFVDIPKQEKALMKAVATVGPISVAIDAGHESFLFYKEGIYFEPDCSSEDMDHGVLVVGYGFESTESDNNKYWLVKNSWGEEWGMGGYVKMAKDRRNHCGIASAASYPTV
Chain of UniProt Q06124 (whole entry, looked up): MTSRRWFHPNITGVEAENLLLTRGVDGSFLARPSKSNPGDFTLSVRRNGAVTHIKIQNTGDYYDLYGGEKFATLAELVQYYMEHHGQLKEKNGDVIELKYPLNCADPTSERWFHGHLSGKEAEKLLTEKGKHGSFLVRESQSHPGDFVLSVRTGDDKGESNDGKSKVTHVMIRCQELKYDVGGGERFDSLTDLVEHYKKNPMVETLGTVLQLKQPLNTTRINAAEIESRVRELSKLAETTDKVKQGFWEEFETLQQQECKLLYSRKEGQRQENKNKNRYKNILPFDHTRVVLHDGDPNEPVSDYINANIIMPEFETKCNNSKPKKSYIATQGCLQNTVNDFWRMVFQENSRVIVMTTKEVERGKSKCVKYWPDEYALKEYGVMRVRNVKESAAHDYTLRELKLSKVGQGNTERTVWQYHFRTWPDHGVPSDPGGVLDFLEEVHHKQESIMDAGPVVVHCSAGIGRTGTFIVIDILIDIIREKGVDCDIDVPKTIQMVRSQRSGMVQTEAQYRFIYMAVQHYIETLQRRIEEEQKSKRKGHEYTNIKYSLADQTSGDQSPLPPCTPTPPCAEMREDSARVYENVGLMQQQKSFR
Chain of UniProt Q9NVM4 (whole entry, looked up): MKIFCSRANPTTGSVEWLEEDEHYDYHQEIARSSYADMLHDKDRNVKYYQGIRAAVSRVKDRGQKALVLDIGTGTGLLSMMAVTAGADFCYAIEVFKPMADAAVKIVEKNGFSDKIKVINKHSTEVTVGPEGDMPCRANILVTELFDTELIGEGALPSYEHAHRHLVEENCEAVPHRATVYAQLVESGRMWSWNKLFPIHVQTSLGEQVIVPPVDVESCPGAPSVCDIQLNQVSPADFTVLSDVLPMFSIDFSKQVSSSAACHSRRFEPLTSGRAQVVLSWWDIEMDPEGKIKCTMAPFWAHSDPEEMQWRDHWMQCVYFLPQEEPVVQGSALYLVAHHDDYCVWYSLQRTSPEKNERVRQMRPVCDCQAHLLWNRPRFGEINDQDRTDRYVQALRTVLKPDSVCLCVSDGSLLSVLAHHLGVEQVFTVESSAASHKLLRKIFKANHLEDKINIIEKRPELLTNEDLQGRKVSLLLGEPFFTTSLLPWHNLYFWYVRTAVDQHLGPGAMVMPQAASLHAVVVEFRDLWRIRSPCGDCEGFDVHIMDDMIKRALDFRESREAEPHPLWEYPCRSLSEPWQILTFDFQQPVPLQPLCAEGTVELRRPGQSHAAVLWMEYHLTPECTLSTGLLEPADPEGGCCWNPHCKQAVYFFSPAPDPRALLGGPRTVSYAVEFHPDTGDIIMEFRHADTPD
Chain of UniProt P15907 (whole entry, looked up): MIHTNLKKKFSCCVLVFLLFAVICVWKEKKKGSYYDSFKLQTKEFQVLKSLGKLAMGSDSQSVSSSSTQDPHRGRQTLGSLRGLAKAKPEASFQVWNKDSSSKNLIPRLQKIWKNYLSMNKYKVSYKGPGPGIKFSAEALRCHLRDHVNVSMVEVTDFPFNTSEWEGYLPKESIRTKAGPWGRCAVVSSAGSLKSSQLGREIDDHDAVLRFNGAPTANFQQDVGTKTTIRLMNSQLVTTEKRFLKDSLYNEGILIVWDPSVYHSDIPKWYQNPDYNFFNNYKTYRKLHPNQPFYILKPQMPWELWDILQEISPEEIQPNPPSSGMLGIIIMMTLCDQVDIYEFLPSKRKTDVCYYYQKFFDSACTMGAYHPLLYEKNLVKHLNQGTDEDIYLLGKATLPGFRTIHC

| Compound | target | assay | system | conditions | inhibition |
| --- | --- | --- | --- | --- | --- |
| NC(=O)c1ccc(C(=O)NOCc2ccc(Sc3cccc(Cl)c3)c(C(F)(F)F)c2)cc1 | HDAC10 (Homo sapiens, UniProt Q969S8) | cell-free assay, inhibitor | – | 100 µM | 5.7% |
| C[C@H](CCC(=O)N[C@H](CC(c1c[nH]c2ccc(OCc3ccccc3)cc12)c1c[nH]c2ccc(OCc3ccccc3)cc12)C(=O)O)[C@H]1CC[C@H]2[C@@H]3CC[C@@H]4C[C@H](O)CC[C@]4(C)[C@H]3CC[C@]12C | Sialyltransferase ST3Gal-I | enzyme activity, inhibitor, UPLC | – | 500 µM | 4% |
| CN(C)c1ccc(NC(=S)N(C)c2ccccc2)cc1 | MAPT (Homo sapiens, UniProt P10636) | fibril formation, ThT fluorescence | – | 100 µM, with: tau 10 µM | 34% |
| C[C@H](CCC(=O)N[C@H](CC(c1c[nH]c2ccccc12)c1c[nH]c2ccccc12)C(=O)O)[C@H]1CC[C@H]2[C@@H]3CC[C@@H]4C[C@H](O)CC[C@]4(C)[C@H]3CC[C@]12C | Sialyltransferase ST3Gal-I | enzyme activity, inhibitor, UPLC | – | 500 µM | ≤ 3% |
| COc1cc(O)c2c(=O)c(OC)c(-c3ccc(O)c(O)c3)oc2c1 | MAL12 | enzyme activity, inhibitor, absorbance | – | 50 µM | 23.4% |
| COc1ccc(-c2cc(C(F)(F)F)nc(S(=O)(=O)NCC(=O)Nc3ccc(C)cc3)c2)cc1 | WRN (Homo sapiens, UniProt Q14191) | ATPase activity, ADP-Glo | – | concentration not given | inactive |
| C[C@]12CC[C@@H]3c4cc(Br)c(O)c(Br)c4CC[C@H]3[C@@H]1CCC2=O | AKR1C3 | enzyme activity, inhibitor, absorbance | – | 10 µM, pH 9 | 50% |
| COc1cc(C(=O)NC2CCC(N3CCN(CC4CCC5(CCCC5)C4)CC3)CC2)c(F)cc1Nc1ncc2c(n1)N(C1CCCC1(F)F)CC(F)(F)C(=O)N2C (centres unmarked) | MERTK (Homo sapiens, UniProt Q12866) | cell-free assay, TR-FRET | – | 10 µM | 0.19% |
| CN(C1COC1)C(C)(C)/C=C(\C#N)C(=O)N1CCC[C@H]1Cn1nc(-c2ccc(Oc3ccccc3)cc2F)c2c(N)ncnc21 | BMX (Homo sapiens, UniProt P51813) | – | – | 0.1 µM, mean | > 90% |
| Cc1cc(Nc2ccc(NC(=O)c3ccc(NC(=O)c4cccnc4)cc3)cc2)nc(N)n1 | DNMT3A catalytic domain | enzyme activity, inhibitor, restriction-based fluorescence | – | 20 µM | 0% |
| NOCC(=O)O | CBS (Homo sapiens, UniProt P35520) | enzyme activity, inhibitor, fluorescence | – | 10 µM | 80% |
| C[C@H](CCC(=O)N[C@H](CC(c1c[nH]c2ccc(NC(=O)OC(C)(C)C)cc12)c1c[nH]c2ccc(NC(=O)OC(C)(C)C)cc12)C(=O)O)[C@H]1CC[C@H]2[C@@H]3CC[C@@H]4C[C@H](O)CC[C@]4(C)[C@H]3CC[C@]12C | Sialyltransferase ST3Gal-I | enzyme activity, inhibitor, UPLC | – | 500 µM | 2% |
| CC(C)CCC[C@@H](C)[C@H]1CCC([C@@H]2CC[C@H]3C[C@@H](O)CC[C@]3(C)[C@H]2O)[C@]1(C)CC(=O)O (some centres unmarked) | Bile acid receptor (NR1H4, Homo sapiens, UniProt Q96RI1) | reporter gene, antagonist, luciferase | HEK-293T | 10 µM | 100% |
| O=C(O)c1cc(S(=O)(=O)Nc2ccc(Br)cc2)ccc1Cl | Ectonucleoside triphosphate diphosphohydrolase 2 | enzyme activity, inhibitor, absorbance | – | 100 µM | 22% |
| C[C@@]12CC[C@@H]3c4ccc(O)c(I)c4CC[C@H]3[C@@H]1CCC2=O | AKR1C3 | enzyme activity, inhibitor, absorbance | – | 10 µM, pH 9 | 35.1% |
| CC(C)Cn1cc(-c2ccnc(Nc3ccc(C(=O)Nc4ccccc4N)cc3)n2)nn1 | CDK2 with cyclin A2 | enzyme activity, inhibitor, TR-FRET | – | 5 µM | 32.7% |
| CS(=O)(=O)Nc1ccc2c(c1)[C@H](O)CC1(CCN([C@@H]3CCc4cc(C#N)ccc4C3)CC1)O2 | KCNH2 (Homo sapiens, UniProt Q12809, D540A) | ion current, inhibitor, two-electrode voltage clamp | – | 2 µM, oocytes | > 90% |
| C[C@]12CCC[C@H]1[C@@H]1CCc3c(cc(Cl)c(O)c3Cl)[C@H]1CC2 | AKR1C3 | enzyme activity, inhibitor, absorbance | – | 100 µM, pH 9 | 44.6% |
| Cc1cc(NC(=O)[C@H](O)c2cc(F)cc(F)c2)ccc1-c1cnc(N)c(C(=O)NC(C)C)c1 | RIOK2 (Homo sapiens, UniProt Q9BVS4) | cell-free assay, competition with immobilised ligand | – | 1 µM | > 50% |
| CC(C)Cn1cc(-c2ccnc(Nc3ccc(N4CCN(CCCCCCC(=O)NO)CC4)cc3)n2)nn1 | CDK2 with cyclin A2 | enzyme activity, inhibitor, TR-FRET | – | 5 µM | 49.8% |
| C[C@@]12CC[C@@H]3c4ccc(O)c(Br)c4CC[C@H]3[C@@H]1CCC2=O | AKR1C3 | enzyme activity, inhibitor, absorbance | – | 100 µM, pH 9 | 58.2% |
| Cc1cc2c(c(O)c1O)C(=O)c1c(O)cc(O)cc1C2=O | DRD4 (Homo sapiens, UniProt P21917) | cAMP, antagonist | CHO | 50 µM | -2.4% |

| Compound | target | assay | system | conditions | inhibition |
| --- | --- | --- | --- | --- | --- |
| COc1cc2c(cc1Br)[C@H]1CC[C@@]3(C)C(=O)CC[C@H]3[C@@H]1CC2 | AKR1C3 | enzyme activity, inhibitor, absorbance | – | 100 µM, pH 9 | 18.3% |
| O=C(Nc1cccc(C(=O)Nc2ccc3[nH]ncc3c2)c1)Nc1cc(C(F)(F)F)ccc1F | NTRK2 (Homo sapiens, UniProt Q16620) | enzyme activity, inhibitor, FRET | – | 1 µM | 11.6% |
| C[C@H](CCC(=O)N[C@H](CC(c1c[nH]c2ccc(Cl)cc12)c1c[nH]c2ccc(Cl)cc12)C(=O)O)[C@H]1CC[C@H]2[C@@H]3CC[C@@H]4C[C@H](O)CC[C@]4(C)[C@H]3CC[C@]12C | ST6GAL1 (Homo sapiens, UniProt P15907) | enzyme activity, inhibitor, UPLC | – | 25 µM | 95% |
| OC[C@H]1O[C@@H](Sc2ccccc2)[C@H](O)[C@@H](O)[C@@H]1O | SLC5A1 (Homo sapiens, UniProt P13866) | transporter uptake, inhibitor, radiometric | CHO | 10 µM | 23.2% |
| C[C@@]12CC[C@@H]3c4cc(Cl)c(O)cc4CC[C@H]3[C@@H]1CCC2=O | AKR1C3 | enzyme activity, inhibitor, absorbance | – | 10 µM, pH 9 | 60% |
| C=CC(C)(C)c1[nH]c2ccccc2c1C1=C(O)C(=O)C(c2c[nH]c3c(CC=C(C)C)cccc23)=C(O)C1=O | Trypanothione synthetase (Leishmania infantum, UniProt A4I2Z3) | trypanothione synthetase activity | – | 25 µM | 69.3 ± 3.5% |
| C[C@]12CC[C@@H]3c4cc(Br)c(O)cc4CC[C@H]3[C@@H]1CCC2=O | AKR1C3 | enzyme activity, inhibitor, absorbance | – | 10 µM, pH 9 | 13% |
| Nc1ccccc1NC(=O)c1ccc(Nc2nccc(-c3cn(C4CCCCC4)nn3)n2)cc1 | CDK2 with cyclin A2 | enzyme activity, inhibitor, TR-FRET | – | 50 nM | -7.71% |
| Cc1cccc(/C=C/C(=O)c2cnn(-c3ccccc3)c2C)c1 | MAL12 | enzyme activity, inhibitor | – | 10 µM | 9.43% |
| Nc1nc2cc(CC[C@H]3C[C@@H](n4ccc5c(N)ncnc54)[C@H](O)[C@@H]3O)ccc2cc1Br | PRMT7 (Homo sapiens, UniProt Q9NVM4) | enzyme activity, inhibitor | – | 10 µM | < 15% |
| Oc1c(C(Nc2nccs2)c2cccc(OCc3ccccc3)c2)ccc2cccnc12 (centres unmarked) | Genome polyprotein, NS2B-NS3 protease (Dengue virus type 2, UniProt P14340) | enzyme activity, inhibitor, fluorogenic | – | 25 µM, 0.1% CHAPS, with: Bz-Nle-Lys-Arg-Arg-AMC substrate | 92.9 ± 1.26% |
| Cc1cc(Nc2ccc(NC(=O)c3ccc(NC(=O)c4cccnc4O)cc3)cc2)nc(N)n1 | DNMT3A catalytic domain | enzyme activity, inhibitor | – | 10 µM | 0% |
| C[C@]12CC[C@@H]3c4cc(I)c(O)c(I)c4CC[C@H]3[C@@H]1CCC2=O | AKR1C3 | enzyme activity, inhibitor, absorbance | – | 10 µM, pH 9 | 13.6% |
| NC(=O)c1cn(CC(=O)NC[C@H](NC(=O)CCc2nc(-c3cccnc3)no2)C(=O)N[C@H]2C[C@H](C(=O)NO)C2)c(=O)[nH]c1=O | SIRT6 | demyristoylation | – | 10 µM | 1% |
| O=Cc1c2cc(Cl)ccc2n2c1c(-c1ccccc1)c(SC(F)(F)F)c1ccccc12 | EGFR (Homo sapiens, UniProt P00533) | enzyme activity, inhibitor, ADP detection | – | 1 µM | > 50% |
| O=C(O)C(=O)N[C@H](Cc1ccccc1)C(=O)O | Egl nine homolog 1 (EGLN1, Homo sapiens, UniProt Q9GZT9) | CODD peptide hydroxylation, MALDI-TOF MS | – | concentration not given | inactive |
| Oc1c(C(Nc2nccs2)c2ccccc2OCc2ccccc2)ccc2cccnc12 (centres unmarked) | Genome polyprotein, protease (Dengue virus type 2, UniProt P14340) | enzyme activity, inhibitor, fluorescence | – | 10 µM | 66.8% |
| CC(/C=C/C(=O)NO)=C\[C@@H](C)C(=O)c1ccc(N(C)C)cc1 | PTPN11 (Homo sapiens, UniProt Q06124) | enzyme activity, inhibitor, fluorescence | – | 20 µM | 68.8% |
| O=C(c1cccc(S(=O)(=O)NC2CC2)c1)N1CCOCC1 | Ectonucleoside triphosphate diphosphohydrolase 2 | enzyme activity, inhibitor, absorbance | – | 100 µM | 44% |
| NC(=O)c1cn(CC(=O)NC[C@H](NC(=O)CCc2nc(-c3cccnc3)no2)C(=O)N2CCCCC2)c(=O)[nH]c1=O | SIRT6 | demyristoylation | – | 10 µM | 28% |
| CC(C)C[C@H](NC(=O)[C@H](CCC(N)=O)NC(=O)[C@H](CCCCN)NC(=O)[C@H](CCCNC(=N)N)NC(=O)[C@@H]1CCCN1C(=O)[C@H](C)NC(=O)[C@@H](N)CCCCN)C(=O)N[C@@H](C)C(=O)N[C@H](C(=O)N[C@@H](CCCCN)C(=O)N[C@@H](C)C(=O)N[C@@H](C)C(=O)N[C@@H](CCCNC(=N)N)C(=O)N[C@@H](CCCCN)C(=O)N[C@@H](CO)C(=O)N[C@@H](C)C(=O)N1CCC[C@H]1C(=O)N[C@@H](C)C(=O)O)[C@@H](C)O | CTSL | enzyme activity, inhibitor | – | 25 µM, pH 6.0, 25 °C, 3% DMSO, with: Z-LR-Mca at 0.16 x Km | 85.4 ± 0.3% |
| CC(C)c1ccc(C(=O)Nc2ccc(CN)cc2)c(O)c1 | CTSL | enzyme activity, inhibitor | – | 10 µM | < 20% |

Some of these lines once more:
| Compound | target | assay | system | conditions | inhibition |
| --- | --- | --- | --- | --- | --- |
| CS(=O)(=O)Nc1ccc2c(c1)[C@H](O)CC1(CCN([C@@H]3CCc4cc(C#N)ccc4C3)CC1)O2 | KCNH2 (Homo sapiens, UniProt Q12809, D540A) | ion current, inhibitor, two-electrode voltage clamp | – | 2 µM, oocytes | > 90% |
| CC(C)Cn1cc(-c2ccnc(Nc3ccc(N4CCN(CCCCCCC(=O)NO)CC4)cc3)n2)nn1 | CDK2 with cyclin A2 | enzyme activity, inhibitor, TR-FRET | – | 5 µM | 49.8% |
| C[C@H](CCC(=O)N[C@H](CC(c1c[nH]c2ccc(Cl)cc12)c1c[nH]c2ccc(Cl)cc12)C(=O)O)[C@H]1CC[C@H]2[C@@H]3CC[C@@H]4C[C@H](O)CC[C@]4(C)[C@H]3CC[C@]12C | ST6GAL1 (Homo sapiens, UniProt P15907) | enzyme activity, inhibitor, UPLC | – | 25 µM | 95% |
